Experimental data pooled from the literature.
Lines come from different studies, so protocols differ. ± gives the spread as reported.

`N=C(N)NCCC[C@@H]1NC(=O)[C@H](CCCCNC(=O)CNC(=O)CNC(=O)CNC(=O)CC[C@H](NC(=O)CNC(=O)CNC(=O)CNC(=O)CC[C@H](NC(=O)CN2CCN(CC(=O)O)CCN(CC(=O)O)CCN(CC(=O)O)CC2)C(=O)NCC(=O)NCC(=O)NCC(=O)N[C@@H](CCC(=O)NCC(=O)NCC(=O)NCC(=O)NCCCC[C@@H]2NC(=O)[C@@H](Cc3ccccc3)NC(=O)[C@H](CC(=O)O)NC(=O)CNC(=O)[C@H](CCCNC(=N)N)NC2=O)C(=O)NCC(=O)NCC(=O)NCC(=O)NCCCC[C@@H]2NC(=O)[C@@H](Cc3ccccc3)NC(=O)[C@H](CC(=O)O)NC(=O)CNC(=O)[C@H](CCCNC(=N)N)NC2=O)C(=O)NCC(=O)NCC(=O)NCC(=O)NCCCC[C@@H]2NC(=O)[C@@H](Cc3ccccc3)NC(=O)[C@H](CC(=O)O)NC(=O)CNC(=O)[C@H](CCCNC(=N)N)NC2=O)NC(=O)[C@@H](Cc2ccccc2)NC(=O)[C@H](CC(=O)O)NC(=O)CNC1=O` [indium-111 labelled] gave a tissue uptake of 8.42 ± 0.86 %ID/g (female athymic nu/nu mice, kidney; intravenous, 1 h).
The dose-normalized AUC of `C=C1CC[C@H](OCCCNC(=O)CCOCCOCCOCCOCCOCCOCCOCCOCCOCCOCCOCCOCCOCCOCCOCCOCCOCCOCCOCCOCCOCCOCCOCCOCCOCCOCCOCCOCCOCCOCCOCCOCCOCCOCCOCCOCCNC(=O)CCN2C(=O)CC(SC[C@H](NC(=O)[C@H](Cc3ccccc3)NC(=O)[C@H](CC(N)=O)NC(=O)[C@H](Cc3c[nH]cn3)NC(=O)[C@@H](NC(=O)[C@H](CC(=O)O)NC(=O)[C@H](CCC(N)=O)NC(=O)[C@H](CC(C)C)NC(=O)[C@H](CCCCN)NC(=O)[C@H](CCCCN)NC(=O)[C@H](CCCNC(=N)N)NC(=O)[C@H](CC(C)C)NC(=O)[C@H](Cc3c[nH]c4ccccc34)NC(=O)[C@H](CCC(=O)O)NC(=O)[C@@H](NC(=O)[C@H](CCCNC(=N)N)NC(=O)[C@H](CCC(=O)O)NC(=O)[C@H](CCSC)NC(=O)[C@H](CO)NC(=O)[C@H](CC(N)=O)NC(=O)[C@H](CC(C)C)NC(=O)[C@H](Cc3c[nH]cn3)NC(=O)[C@H](CCCCN)NC(=O)CNC(=O)[C@H](CC(C)C)NC(=O)[C@H](CC(N)=O)NC(=O)[C@H](Cc3c[nH]cn3)NC(=O)[C@H](CCSC)NC(=O)[C@H](CC(C)C)NC(=O)[C@H](CCC(N)=O)NC(=O)[C@@H](NC(=O)[C@H](CCC(=O)O)NC(=O)[C@H](CO)NC(=O)[C@@H](NC(=O)[C@@H](N)CO)C(C)C)[C@@H](C)CC)C(C)C)C(C)C)C(N)=O)C2=O)C/C1=C/C=C1\CCC[C@]2(C)[C@@H]([C@H](C)CCCC(C)(C)O)CC[C@@H]12` (some centres unmarked) is reported as 1 (cynomolgus monkey; subcutaneous, 0.7 µg/kg every other day, 89 days; baseline: reference dose).
`N=C(N)NCCC[C@@H]1NC(=O)[C@H](CCCCNC(=O)CC[C@H](NC(=O)CC[C@H](NC(=O)CN2CCN(CC(=O)O)CCN(CC(=O)O)CCN(CC(=O)O)CC2)C(=O)N[C@@H](CCC(=O)NCCCC[C@@H]2NC(=O)[C@@H](Cc3ccccc3)NC(=O)[C@H](CC(=O)O)NC(=O)CNC(=O)[C@H](CCCNC(=N)N)NC2=O)C(=O)NCCCC[C@@H]2NC(=O)[C@@H](Cc3ccccc3)NC(=O)[C@H](CC(=O)O)NC(=O)CNC(=O)[C@H](CCCNC(=N)N)NC2=O)C(=O)NCCCC[C@@H]2NC(=O)[C@@H](Cc3ccccc3)NC(=O)[C@H](CC(=O)O)NC(=O)CNC(=O)[C@H](CCCNC(=N)N)NC2=O)NC(=O)[C@@H](Cc2ccccc2)NC(=O)[C@H](CC(=O)O)NC(=O)CNC1=O` [indium-111 labelled] has a tissue uptake of 1.4 ± 0.95 %ID/g (female athymic nu/nu mice, spleen; intravenous, 111 kBq, 4 h).
With `CCCC[C@H](NC(=O)CCCCCCCNC(=O)CN1CCN(CC(=O)O)CCN(CC(=O)O)CC1)C(=O)N[C@H]1CC(=O)NCCCC[C@@H](C(N)=O)NC(=O)[C@H](Cc2c[nH]c3ccccc23)NC(=O)[C@H](CCCNC(=N)N)NC(=O)[C@@H](Cc2ccccc2)NC(=O)[C@H](Cc2c[nH]cn2)NC1=O` [copper-64 labelled] the tissue uptake was 0.02 %ID/g (C57 mice, brain; intravenous, 0.37 MBq, 4 h).
With `Cc1cc(-c2ccc(NC(=O)[C@H](CCCCNC(=O)CCOCCOCCC(=O)N[C@H](Cc3ccccc3)C(=O)N[C@H]3CSSC[C@@H](C(=O)N[C@H](C(=O)O)[C@@H](C)O)NC(=O)[C@H]([C@@H](C)O)NC(=O)[C@H](CCCCN)NC(=O)[C@@H](Cc4c[nH]c5ccccc45)NC(=O)[C@H](Cc4ccc(O)cc4)NC3=O)NC(=O)CN3CCN(CC(=O)O)CCN(CC(=O)O)CCN(CC(=O)O)CC3)c(C)c2)ccc1N=Nc1ccc2c(S(=O)(=O)O)cc(S(=O)(=O)O)c(N)c2c1O` [lutetium-177 labelled] the residence time was 0.98 ± 0.81 h (patients with metastatic NETs, all metastatic lesions).
For `CN1C(=O)[C@@H](Cc2ccc(O)cc2)NC(=O)CNC(=O)[C@H](Cc2ccc3ccccc3c2)NC(=O)[C@H](CCCNC(=N)N)NC(=O)[C@H]1CCCNC(=O)c1ccc(CNC(=O)CN2CCN(CC(=O)O)CCN(CC(=O)O)CCN(CC(=O)O)CC2)cc1` [gallium-68 labelled], “time-integrated activity coefficient” read 0.042 ± 0.012 MBq-h/MBq (adult reference man, from C57BL/6 mice data, heart contents; dose not given).
For `Cc1cc(-c2ccc(NC(=O)[C@H](CCCCNC(=O)CCN3C(=O)CC(SCCC(=O)N[C@H](Cc4ccccc4)C(=O)N[C@H]4CSSC[C@@H](C(=O)N[C@H](C(=O)O)[C@@H](C)O)NC(=O)[C@H]([C@@H](C)O)NC(=O)[C@H](CCCCN)NC(=O)[C@@H](Cc5c[nH]c6ccccc56)NC(=O)[C@H](Cc5ccc(O)cc5)NC4=O)C3=O)NC(=O)CN3CCN(CC(=O)O)CCN(CC(=O)O)CCN(CC(=O)O)CC3)c(C)c2)ccc1N=Nc1ccc2c(S(=O)(=O)O)cc(S(=O)(=O)O)c(N)c2c1O` (some centres unmarked) [lutetium-177 labelled], the residence time was 0.96 ± 0.16 h (patients with metastatic NETs, liver).
`CC1=C(I)C(C)=[N+]2C1=C(c1ccc(OCCn3cc(CNC(=O)CSC[C@H](NC(=O)c4ccc(-c5nnc(C)nn5)cc4)C(=O)N[C@@H](CCCNC(=N)N)C(=O)N[C@@H](CCCNC(=N)N)C(=O)N[C@@H](CCCNC(=N)N)C(=O)N[C@@H](CCCNC(=N)N)C(=O)N[C@@H](CCCNC(=N)N)C(N)=O)nn3)cc1)c1c(C)c(I)c(C)n1[B-]2(F)F`: “singlet oxygen quantum yield” 0.55 (1 µM, added: DPBF, 525 nm light; baseline: rose bengal, erythrosine B).

A few entries again:
With `CCCC[C@H](NC(=O)CCCCCCCNC(=O)CN1CCN(CC(=O)O)CCN(CC(=O)O)CC1)C(=O)N[C@H]1CC(=O)NCCCC[C@@H](C(N)=O)NC(=O)[C@H](Cc2c[nH]c3ccccc23)NC(=O)[C@H](CCCNC(=N)N)NC(=O)[C@@H](Cc2ccccc2)NC(=O)[C@H](Cc2c[nH]cn2)NC1=O` [copper-64 labelled] the tissue uptake was 0.02 %ID/g (C57 mice, brain; intravenous, 0.37 MBq, 4 h).
